Experimental data of several laboratories.
Each line is one published result; not all experiments were run side by side. Several values in a cell are separate wells, animals, samples, runs or records. Numbers after ± are the reported error.

CC[C@H](C)[C@H](NC(=O)[C@H](C)NC(=O)[C@H](CCC(=O)O)NC(=O)[C@H](CCC(=O)O)NC(=O)[C@H](CC(C)C)NC(=O)[C@H](CCCCN)NC(=O)[C@H](CCCCN)NC(=O)[C@H](CCSC)NC(=O)[C@H](CCC(=O)O)NC(=O)[C@H](Cc1ccc(O)cc1)NC(=O)[C@H](CCC(=O)O)NC(=O)[C@H](CC(C)C)NC(=O)[C@H](CC(=O)O)NC(=O)[C@H](CC(C)C)NC(=O)[C@H](Cc1ccccc1)NC(=O)[C@@H](NC(=O)[C@@H](NC(=O)[C@H](CC(N)=O)NC(=O)[C@@H](NC(=O)[C@H](CCC(N)=O)NC(=O)[C@H](CC(=O)O)NC(=O)[C@H](CC(C)C)NC(=O)[C@@H](N)CO)[C@@H](C)CC)C(C)C)[C@@H](C)O)C(=O)N[C@@H](CCCCN)C(=O)N[C@@H](CCCCN)C(=O)N[C@@H](CC(C)C)C(=O)N[C@@H](CCC(=O)O)C(=O)N[C@@H](CCC(=O)O)C(=O)N[C@@H](CO)C(=O)N[C@@H](Cc1ccc(O)cc1)C(=O)N[C@H](C(=O)N[C@@H](CC(=O)O)C(=O)N[C@@H](CC(C)C)C(=O)N[C@@H](CCCCN)C(=O)N[C@@H](CCC(=O)O)C(=O)N[C@@H](CC(C)C)C(=O)O)[C@@H](C)CC  IC50 (H9/HIV-1 IIIB and TZM-bl cells; cell-cell fusion, luciferase reporter; 36 h, 37 °C): > 5000 nM
CC[C@H](C)[C@H](NC(=O)[C@H](CC(C)C)NC(=O)[C@H](CC(C)C)NC(=O)[C@H](CC(=O)O)NC(=O)[C@@H](NC(=O)[C@H](CCC(=O)O)NC(=O)[C@H](CCCCN)NC(=O)[C@H](Cc1ccc(O)cc1)NC(=O)[C@H](CCCCN)NC(=O)[C@H](Cc1c[nH]cn1)NC(=O)CNC(=O)CN)[C@@H](C)O)C(=O)N[C@@H](CC(C)C)C(=O)N[C@@H](Cc1ccccc1)C(=O)N[C@@H](CCCCN)C(=O)N[C@@H](CC(=O)O)C(=O)N[C@@H](CC(=O)O)C(=O)N[C@@H](Cc1ccc(O)cc1)C(=O)N[C@@H](Cc1ccccc1)C(=O)N[C@@H](C)C(=O)N[C@@H](CCCCN)C(=O)N[C@@H](CCCCN)C(=O)N[C@@H](CC(N)=O)C(=O)N[C@@H](CCC(=O)O)C(=O)N[C@@H](CCC(=O)O)C(=O)N[C@@H](CCCNC(=N)N)C(=O)N[C@@H](CCCCN)C(N)=O  initial cleavage rate (HCV IRES RNA; MALDI-TOF mass spectrometry, measured: 2',3'-cyclic phosphate products; hepatitis C virus): 10.5 ± 4.3 %/min
CC[C@H](C)[C@H](NC(=O)[C@H](CC(=O)O)NC(=O)[C@@H](NC(=O)[C@@H]1CCCN1C(=O)[C@@H](N)CCCNC(=N)N)[C@@H](C)O)C(=O)N[C@@H](CCCCN)C(=O)N[C@H]1CSSC[C@@H]2NC(=O)[C@H](CCCNC(=N)N)NC(=O)CNC(=O)[C@H](CC(N)=O)NC(=O)[C@H]([C@@H](C)O)NC(=O)[C@H](CCCCN)NC(=O)CNC(=O)[C@H](Cc3ccccc3)NC(=O)[C@H](CCCNC(=N)N)NC(=O)[C@H](CO)NC(=O)[C@H](CCCCNC(=O)OCc3cc(OC)c(OC)cc3[N+](=O)[O-])NC(=O)[C@@H]3CSSC[C@@H](C(=O)N[C@@H](Cc4ccccc4)C(=O)O)NC(=O)[C@H](CC(=O)O)NC(=O)[C@H](CSSC[C@H](NC(=O)[C@H](CCC(N)=O)NC(=O)[C@H](Cc4ccc(O)cc4)NC(=O)[C@H](CO)NC(=O)[C@H](CCC(=O)O)NC(=O)[C@H](CO)NC1=O)C(=O)N[C@@H](Cc1ccccc1)C(=O)N1CCC[C@H]1C(=O)N[C@@H](C(C)C)C(=O)N3)NC(=O)[C@H](Cc1ccccc1)NC(=O)CNC(=O)[C@H](CC(N)=O)NC(=O)[C@H](C(C)C)NC2=O  APD90 increase (human iPS-derived cardiomyocytes; 200 nM, after illumination 365 nm; relative to: no illumination): 1.3 fold
CCc1nc2ccc(C(F)(F)F)cn2c1C(=O)NCc1ccc2oc(-c3ccc(Cl)cc3)nc2c1  MIC (Mycolicibacterium smegmatis; 72 h): > 100 µM
Cc1cc(C(=O)Nc2nc3cccc(C)c3n2[C@H]2CCCCN(C(=O)/C=C/CN(C)C)C2)ccn1  cell growth (Trypanosoma brucei brucei; CLK1 C215S mutant expressing; 5 x EC50, 36 h): 4600% and 4530% and 5870%
CC[C@@H]1CN2CCc3c([nH]c4cccc(OC)c34)[C@@H]2C[C@@H]1/C(=C\OC)C(=O)OC  IC50 (rabbit anti-mitragynine polyclonal IgG; antigen binding, competitor, competitive indirect ELISA; 5% methanol; 60 min antibody-standard, 30 min antibody-antigen incubation): 0.5 µg/mL and 0.6 µg/mL
Cc1ccc(N2CC3CC(C2)N3C)cc1C(=O)NC1(c2ccc3c4c(cccc24)C(=O)N3C)CC1  inhibition (quail-PLpro; enzyme activity, inhibitor; 100 µM): 29.5% and 29.2%
Cc1nc2ccc(C(F)(F)F)cn2c1C(=O)NCc1ccc2oc(-c3ccc(OC(F)(F)F)cc3)nc2c1  MIC90 (Mycolicibacterium smegmatis): > 100 µM
COC1CN([C@H]2CC[C@H]([C@@H](C)n3c(C)c(C(=O)NCc4c(SC)cc(C)[nH]c4=O)c4ccccc43)CC2)C1  GI50 (KARPAS-422; cell growth or viability; 8 days): 33 nM
CC(C)C[C@H](NC(=O)[C@H](CC(=O)O)NC(=O)[C@@H](NC(=O)[C@H](CCC(=O)O)NC(=O)[C@H](CCCCN)NC(=O)[C@H](Cc1ccc(O)cc1)NC(=O)[C@H](CCCCN)NC(=O)[C@H](Cc1c[nH]cn1)NC(=O)CNC(=O)CN)[C@@H](C)O)C(N)=O  initial cleavage rate (HCV IRES RNA; MALDI-TOF mass spectrometry, measured: 3'-phosphate products; hepatitis C virus): 2.8 ± 0.2 %/min
NCCCO.O=C(O)C(Cl)Cl  inhibition (Amaranthus retroflexus; herbicidal activity; 15 mg/mL, 21 days, post-emergence greenhouse): 80%
C#CCNC(=O)C1(O/N=C(\C(=O)N[C@@H]2C(=O)N(OS(=O)(=O)O)C2(C)C)c2csc(N)n2)CC1  MIC (Serratia marcescens; agar dilution; ATCC 21074 susceptible): 2 µg/mL
CCc1nc2cc(Br)ccn2c1C(=O)NCc1ccc2oc(-c3ccc(Cl)cc3)nc2c1  MIC (Mycolicibacterium smegmatis; 72 h): > 25 µM
CC(C)(C)C(=O)OCOP(=O)(OCOC(=O)C(C)(C)C)C1CCCN(O)C1=O (stereo not drawn)  log TGI (UO-31): -5.19 log M
CCc1nn(C)c2nc(-c3ccc(C(=O)O)cc3)nc(NCc3ccccc3)c12  parasite number (Cryptosporidium parvum; HCT-8; EC90, 0 h; relative to: DMSO control): 96.8% and 109% and 101% and 93.3%
CC(C)C[C@@H]1NC(=O)[C@@H]2CSSC[C@@H](C(=O)NCC(=O)O)NC(=O)[C@H](Cc3ccccc3)NC(=O)CNC(=O)[C@H](CC(N)=O)NC(=O)[C@@H]3CCCN3C(=O)CNC(=O)[C@@H]3CSSC[C@H](NC(=O)[C@H](CCCNC(=N)N)NC(=O)[C@H](CC(N)=O)NC(=O)[C@H](Cc4c[nH]cn4)NC(=O)[C@H](CCCCN)NC(=O)[C@H](CC(C)C)NC(=O)[C@H](CCCCN)NC(=O)[C@H](Cc4c[nH]cn4)NC(=O)[C@H](CC(N)=O)NC(=O)[C@H](CO)NC(=O)[C@H](CCC(N)=O)NC(=O)[C@@H](NC(=O)CN)CSSC[C@H](NC(=O)CNC(=O)[C@H](C)NC1=O)C(=O)N[C@@H](C(C)C)C(=O)N3)C(=O)N[C@@H](CCCCN)C(=O)N[C@@H](CCC(N)=O)C(=O)N[C@@H](CC(=O)O)C(=O)N[C@@H](CO)C(=O)N[C@@H](CC(=O)O)C(=O)N2  IC50 (HEK293, Wnt1-transfected; Wnt signalling): > 100000 nM
Cc1cc(Oc2nc(N3CC[C@@H](c4ccncc4)C3)ncc2F)[nH]n1  normalised growth (Mycobacterium tuberculosis; OD; H37Rv PurF CRISPRi knockdown; 0.5 µM, together with: anhydrotetracycline low): 1% and 3% and 0%
O=C(O)c1ccc(-c2nc(-c3ccccc3Cl)c3sccn23)cc1  platelet count change (C57BL/6 mouse; dose not given, day -3, no 5-FU, basal haematopoiesis; relative to: baseline): 100%
COc1ccccc1-c1ccncc1C(=O)Nc1nnc(OCc2ccc(Cl)cc2)s1  colony survival (DLD-1 BRCA2-/-; 2 µM, single replicate; relative to: untreated): 35.2% and 30.3% and 28.4%
Nc1ccccc1C(=O)OCC#CCOC(=O)c1ccccc1N  MIC (Nakaseomyces glabratus; microbial growth, broth dilution; MY1381): > 128 µg/mL
COc1ccccc1-c1n[nH]c2nc(NC3CCN(C(=O)Cc4ccc(F)cc4F)CC3)ncc12  relative abundance (bead binding, competition bead pull-down, measured: LINJ.35.3750; Leishmania donovani extract; 10 µM; relative to: vehicle): 1.15
CCc1nnc(-c2c(OC)cc(-c3cnc4cc(-c5cnn(C)c5)ccn34)cc2OC)o1  osteoid volume/bone volume (histomorphometry; male C57BL/6J mouse, tibia; oral gavage, 10 mg/kg once daily, 3 wk): 0.238 ± 0.0735%
COc1ccccc1-c1n[nH]c2nc(N[C@H]3CC[C@H](NS(=O)(=O)CC(C)C)CC3)ncc12  relative abundance (bead binding, competition bead pull-down, measured: LINJ.33.1410; Leishmania donovani extract; 10 µM; relative to: vehicle): 1
[2H]C([2H])([18F])[C@]([2H])(N)C(=O)O  maximum cellular uptake (MIA PaCa-2 tumour model; host not given; 30 min): 4 ± 0.3 %ID/100 µg protein
